Assay results from different studies.
Parts stem from different laboratories: compare values within a part only.
UniProt P49674, sequence (whole entry, looked up): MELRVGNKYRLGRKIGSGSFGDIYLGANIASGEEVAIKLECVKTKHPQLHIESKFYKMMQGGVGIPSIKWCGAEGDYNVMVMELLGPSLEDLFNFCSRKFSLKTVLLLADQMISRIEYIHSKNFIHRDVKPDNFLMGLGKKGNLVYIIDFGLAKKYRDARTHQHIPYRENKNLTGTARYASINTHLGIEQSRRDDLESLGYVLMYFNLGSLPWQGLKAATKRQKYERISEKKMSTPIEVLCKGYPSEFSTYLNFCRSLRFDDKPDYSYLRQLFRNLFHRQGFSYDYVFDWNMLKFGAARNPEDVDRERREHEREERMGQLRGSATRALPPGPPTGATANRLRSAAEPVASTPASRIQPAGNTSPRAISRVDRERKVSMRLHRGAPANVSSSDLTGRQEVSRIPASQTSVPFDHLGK
UniProt P54753, sequence (whole entry, looked up): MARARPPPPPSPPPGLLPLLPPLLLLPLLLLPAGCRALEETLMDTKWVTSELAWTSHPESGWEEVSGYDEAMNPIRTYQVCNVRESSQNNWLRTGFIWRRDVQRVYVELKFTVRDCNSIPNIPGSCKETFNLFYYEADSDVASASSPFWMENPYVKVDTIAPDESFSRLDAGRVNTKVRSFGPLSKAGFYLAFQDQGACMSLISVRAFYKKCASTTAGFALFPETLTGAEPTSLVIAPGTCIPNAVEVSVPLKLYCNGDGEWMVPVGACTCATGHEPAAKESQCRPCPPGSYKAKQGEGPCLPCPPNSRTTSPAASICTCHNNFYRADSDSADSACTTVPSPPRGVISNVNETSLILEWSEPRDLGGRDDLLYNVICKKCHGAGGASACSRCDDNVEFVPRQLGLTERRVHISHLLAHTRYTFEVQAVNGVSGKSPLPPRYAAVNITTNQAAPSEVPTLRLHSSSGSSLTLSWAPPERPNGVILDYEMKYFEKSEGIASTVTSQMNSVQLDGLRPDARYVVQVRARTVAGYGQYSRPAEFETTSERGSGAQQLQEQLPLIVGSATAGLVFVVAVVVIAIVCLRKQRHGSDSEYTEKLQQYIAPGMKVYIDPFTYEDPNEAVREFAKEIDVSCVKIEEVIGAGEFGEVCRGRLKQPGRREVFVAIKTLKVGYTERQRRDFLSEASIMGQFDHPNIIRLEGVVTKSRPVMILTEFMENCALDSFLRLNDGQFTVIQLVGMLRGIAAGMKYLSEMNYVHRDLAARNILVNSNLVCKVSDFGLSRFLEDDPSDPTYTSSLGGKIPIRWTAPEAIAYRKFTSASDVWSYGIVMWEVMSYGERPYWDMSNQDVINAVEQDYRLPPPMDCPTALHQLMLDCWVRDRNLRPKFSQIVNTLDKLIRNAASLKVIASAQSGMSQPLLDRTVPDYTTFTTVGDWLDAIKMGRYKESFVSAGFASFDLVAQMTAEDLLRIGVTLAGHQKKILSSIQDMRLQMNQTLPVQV
UniProt Q9H0K1, sequence (whole entry, looked up): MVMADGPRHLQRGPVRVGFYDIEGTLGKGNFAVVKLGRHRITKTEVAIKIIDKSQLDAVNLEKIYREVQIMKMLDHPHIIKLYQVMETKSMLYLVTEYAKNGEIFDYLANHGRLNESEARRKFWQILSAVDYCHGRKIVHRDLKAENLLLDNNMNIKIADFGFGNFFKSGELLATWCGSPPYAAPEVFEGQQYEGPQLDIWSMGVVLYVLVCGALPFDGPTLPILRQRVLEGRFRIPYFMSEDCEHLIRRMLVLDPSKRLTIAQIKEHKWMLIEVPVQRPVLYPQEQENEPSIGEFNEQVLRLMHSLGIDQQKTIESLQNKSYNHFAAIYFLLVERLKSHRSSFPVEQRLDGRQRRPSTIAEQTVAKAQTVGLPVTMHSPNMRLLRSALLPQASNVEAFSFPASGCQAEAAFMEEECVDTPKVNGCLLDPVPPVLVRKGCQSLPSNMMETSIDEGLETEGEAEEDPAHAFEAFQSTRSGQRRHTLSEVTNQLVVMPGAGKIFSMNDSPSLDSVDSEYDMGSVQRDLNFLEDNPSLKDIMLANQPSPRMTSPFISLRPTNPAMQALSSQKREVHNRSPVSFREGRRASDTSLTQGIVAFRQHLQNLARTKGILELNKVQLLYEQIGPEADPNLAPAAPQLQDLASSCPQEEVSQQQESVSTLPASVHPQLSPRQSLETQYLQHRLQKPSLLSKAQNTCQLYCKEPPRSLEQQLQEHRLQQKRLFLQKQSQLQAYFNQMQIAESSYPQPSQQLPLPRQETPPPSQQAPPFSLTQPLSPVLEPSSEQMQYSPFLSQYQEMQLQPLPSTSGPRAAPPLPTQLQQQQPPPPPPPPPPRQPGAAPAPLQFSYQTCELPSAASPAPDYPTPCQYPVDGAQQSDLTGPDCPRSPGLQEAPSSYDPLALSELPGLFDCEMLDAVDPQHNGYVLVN
UniProt P48730, sequence (whole entry, looked up): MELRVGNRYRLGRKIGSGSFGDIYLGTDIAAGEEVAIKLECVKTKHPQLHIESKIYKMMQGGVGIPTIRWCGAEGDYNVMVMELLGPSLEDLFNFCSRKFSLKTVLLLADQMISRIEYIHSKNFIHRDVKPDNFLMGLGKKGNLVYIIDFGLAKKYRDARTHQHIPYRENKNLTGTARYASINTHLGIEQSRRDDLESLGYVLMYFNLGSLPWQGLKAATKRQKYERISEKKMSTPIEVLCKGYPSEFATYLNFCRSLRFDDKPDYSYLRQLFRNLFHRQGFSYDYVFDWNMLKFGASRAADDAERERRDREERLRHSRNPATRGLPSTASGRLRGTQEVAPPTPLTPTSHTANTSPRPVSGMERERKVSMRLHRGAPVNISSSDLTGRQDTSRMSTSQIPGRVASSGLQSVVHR
UniProt P00519, sequence (whole entry, unmodified, looked up): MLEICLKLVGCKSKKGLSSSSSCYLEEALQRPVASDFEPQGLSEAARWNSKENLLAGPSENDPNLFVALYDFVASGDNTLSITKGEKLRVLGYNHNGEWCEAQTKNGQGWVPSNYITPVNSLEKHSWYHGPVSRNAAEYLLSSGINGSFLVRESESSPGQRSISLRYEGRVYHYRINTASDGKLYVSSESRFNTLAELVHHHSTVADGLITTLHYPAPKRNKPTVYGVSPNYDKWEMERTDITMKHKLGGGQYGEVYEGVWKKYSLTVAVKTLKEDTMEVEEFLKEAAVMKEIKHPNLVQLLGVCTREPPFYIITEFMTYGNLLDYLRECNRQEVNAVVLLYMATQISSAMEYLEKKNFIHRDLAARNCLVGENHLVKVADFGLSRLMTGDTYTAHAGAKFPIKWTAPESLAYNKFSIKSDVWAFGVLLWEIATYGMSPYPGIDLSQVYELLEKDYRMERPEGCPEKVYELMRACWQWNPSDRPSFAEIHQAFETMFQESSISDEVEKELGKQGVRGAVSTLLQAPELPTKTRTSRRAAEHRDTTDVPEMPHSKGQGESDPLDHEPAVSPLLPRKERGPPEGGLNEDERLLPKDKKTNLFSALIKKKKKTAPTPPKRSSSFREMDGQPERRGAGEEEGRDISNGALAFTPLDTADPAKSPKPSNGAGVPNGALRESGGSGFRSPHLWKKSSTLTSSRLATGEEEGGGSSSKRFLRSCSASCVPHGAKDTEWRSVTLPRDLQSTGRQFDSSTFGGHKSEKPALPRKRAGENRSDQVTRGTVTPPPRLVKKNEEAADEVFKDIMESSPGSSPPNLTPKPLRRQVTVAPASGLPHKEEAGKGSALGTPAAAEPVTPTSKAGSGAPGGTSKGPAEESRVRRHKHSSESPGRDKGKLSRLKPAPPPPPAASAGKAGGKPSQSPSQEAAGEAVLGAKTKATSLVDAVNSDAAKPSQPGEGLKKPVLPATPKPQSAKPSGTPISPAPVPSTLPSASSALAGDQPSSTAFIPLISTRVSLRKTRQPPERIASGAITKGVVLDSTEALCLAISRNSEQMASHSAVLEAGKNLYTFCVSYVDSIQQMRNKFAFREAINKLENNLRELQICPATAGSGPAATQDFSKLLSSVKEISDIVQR
UniProt P37023, sequence (whole entry, looked up): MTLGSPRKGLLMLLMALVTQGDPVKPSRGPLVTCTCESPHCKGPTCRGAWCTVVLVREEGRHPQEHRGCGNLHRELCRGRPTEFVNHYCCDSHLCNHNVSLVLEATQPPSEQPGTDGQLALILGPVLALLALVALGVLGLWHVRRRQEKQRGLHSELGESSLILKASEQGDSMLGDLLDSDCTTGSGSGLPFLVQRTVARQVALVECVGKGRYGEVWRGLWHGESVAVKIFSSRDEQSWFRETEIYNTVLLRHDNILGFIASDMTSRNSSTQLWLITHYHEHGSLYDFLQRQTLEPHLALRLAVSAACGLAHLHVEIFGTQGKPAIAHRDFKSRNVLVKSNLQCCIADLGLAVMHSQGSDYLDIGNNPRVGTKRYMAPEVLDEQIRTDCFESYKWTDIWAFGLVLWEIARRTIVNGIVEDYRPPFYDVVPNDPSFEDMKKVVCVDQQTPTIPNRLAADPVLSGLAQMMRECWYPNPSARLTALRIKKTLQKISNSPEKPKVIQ
UniProt Q9NYY3, sequence (whole entry, looked up): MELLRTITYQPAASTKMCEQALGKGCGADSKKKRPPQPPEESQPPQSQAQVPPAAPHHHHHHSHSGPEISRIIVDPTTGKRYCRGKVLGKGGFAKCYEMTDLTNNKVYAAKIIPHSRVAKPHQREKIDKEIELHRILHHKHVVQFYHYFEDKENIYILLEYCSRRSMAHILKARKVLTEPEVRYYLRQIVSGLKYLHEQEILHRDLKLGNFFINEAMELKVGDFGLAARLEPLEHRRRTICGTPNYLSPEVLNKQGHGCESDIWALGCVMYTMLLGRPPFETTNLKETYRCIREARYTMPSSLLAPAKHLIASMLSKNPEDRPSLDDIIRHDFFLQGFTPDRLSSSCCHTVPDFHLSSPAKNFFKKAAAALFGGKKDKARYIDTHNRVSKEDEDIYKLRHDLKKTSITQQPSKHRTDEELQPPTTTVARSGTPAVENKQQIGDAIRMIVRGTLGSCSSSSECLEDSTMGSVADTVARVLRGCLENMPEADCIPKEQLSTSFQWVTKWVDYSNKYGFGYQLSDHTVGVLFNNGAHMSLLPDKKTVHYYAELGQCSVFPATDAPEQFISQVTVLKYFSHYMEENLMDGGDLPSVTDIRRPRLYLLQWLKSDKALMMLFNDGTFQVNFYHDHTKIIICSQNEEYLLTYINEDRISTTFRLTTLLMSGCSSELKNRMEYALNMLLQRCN

Block 1
SMILES: COc1cc2ncc(-c3ccccc3)nc2cc1OC
Effect on: enzyme activity
Action: inhibitor
Tested at: 0.5 µM
Baseline: control
| target | remaining activity [%] |
| --- | --- |
| BRSK2 (Homo sapiens, UniProt Q8IWQ3) | 103 |
| Cyclin-dependent kinase 2, with cyclin E (CDK2, Homo sapiens, UniProt P24941) | 85.4 |
| CSNK1E (Homo sapiens, UniProt P49674) | 79.3 |
| YES1 (Homo sapiens, UniProt P07947) | 96.1 |
| PRKCQ (Homo sapiens, UniProt Q04759) | 101 |
| MARK1 (Homo sapiens, UniProt Q9P0L2) | 92.6 |
| JAK2 (Homo sapiens, UniProt O60674) | 94.4 |
| PAK6 (Homo sapiens, UniProt Q9NQU5) | 82.8 |
| CAMK1 (Homo sapiens, UniProt Q14012) | 90.4 |
| SGK2 (Homo sapiens, UniProt Q9HBY8) | 95.6 |
| CSNK1D (Homo sapiens, UniProt P48730) | 101 |
| SIK2 (Homo sapiens, UniProt Q9H0K1) | 93.1 |
| RPS6KB2 (Homo sapiens, UniProt Q9UBS0) | 104 |
| CLK2 (Homo sapiens, UniProt P49760) | 87.4 |
| EPHB3 (Homo sapiens, UniProt P54753) | 88.6 |
| PIM1 (Homo sapiens, UniProt P11309) | 95.9 |
| ACVRL1 (Homo sapiens, UniProt P37023) | 95.8 |
| TEC (Homo sapiens, UniProt P42680) | 164 |
| MELK (Homo sapiens, UniProt Q14680) | 88.9 |
| MAP3K20 (Homo sapiens, UniProt Q9NYL2) | 94.7 |
| SRPK1 (Homo sapiens, UniProt Q96SB4) | 105 |
| FES (Homo sapiens, UniProt P07332) | 105 |
| PAK4 (Homo sapiens, UniProt O96013) | 75.9 |
| CAMKK1 (Homo sapiens, UniProt Q8N5S9) | 98.9 |
| PRKCZ (Homo sapiens, UniProt Q05513) | 96.3 |

Block 2
Target: Diamine acetyltransferase 1 (Homo sapiens, UniProt P21673)
Action: inhibitor
Tested at: 10 µM
Baseline: control
Residues (P21673 1-171): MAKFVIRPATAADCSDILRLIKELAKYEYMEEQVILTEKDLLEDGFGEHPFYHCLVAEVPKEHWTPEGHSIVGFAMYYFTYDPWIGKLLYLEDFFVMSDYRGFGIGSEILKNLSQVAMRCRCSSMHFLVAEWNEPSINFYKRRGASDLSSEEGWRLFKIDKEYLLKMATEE
| SMILES | remaining activity [%] |
| --- | --- |
| CSC[C@H]1O[C@@H](n2cnc3c(N)ncnc32)[C@H](O)[C@@H]1O | 75.7 |
| C=C(CC[C@@H](C(=O)O)[C@H]1CC[C@@]2(C)C3=CC[C@H]4C(C)(C)[C@@H](OC(C)=O)CC[C@]4(C)C3=CC[C@]12C)C(C)C | 110 |
| CC(=O)O[C@@H](C[C@@H](C)C1=C2C[C@H](O)[C@H]3[C@@]4(C)CCC(=O)C(C)(C)[C@@H]4CC[C@]3(C)[C@@]2(C)CC1)[C@H]1OC1(C)C | 96.5 |
| CC(C)[C@@H](C)/C=C/[C@@H](C)[C@H]1CC[C@H]2C3=CC=C4C[C@@H](O)CC[C@]4(C)[C@H]3CC[C@]12C | 103 |
| Cc1cc(O)c(C(=O)CCC(C)C)c(=O)o1 | 107 |
| COc1ccc([C@@H]2CC(=O)c3c(O)cc(O[C@@H]4O[C@H](CO[C@@H]5O[C@@H](C)[C@H](O)[C@@H](O)[C@H]5O)[C@@H](O)[C@H](O)[C@H]4O)cc3O2)cc1 | 99.9 |

Block 3
SMILES: CC(C)CC(=O)N1CCc2nc(-c3ccc(Br)cc3)nc(N(C)Cc3ccccc3)c2C1
Effect on: cell-free assay
Technique: competition with immobilised ligand
Tested at: 0.1 µM
| target | remaining binding |
| --- | --- |
| IRAK4 (Homo sapiens, UniProt Q9NWZ3) | 100% |
| Tyrosine-protein kinase ABL1, phosphorylated (ABL1, Homo sapiens, UniProt P00519, F317L) | 100% |
| MAP4K5 (Homo sapiens, UniProt Q9Y4K4) | 93% |
| EPHB4 (Homo sapiens, UniProt P54760) | 100% |
| PLK2 (Homo sapiens, UniProt Q9NYY3) | 100% |
| MAP3K10 (Homo sapiens, UniProt Q02779) | 96% |

Block 4
Matrix: hydrocarbon/water
| Compound | logD |
| --- | --- |
| CCOC(=O)[C@@H]1CSCC(=O)N[C@H](CC)C(=O)N(C)[C@@H](C)C(=O)N[C@@H](CC(C)C)C(=O)N2CCC[C@@H]2C(=O)N(CC(C)C)CC(=O)N[C@@H](CC(C)C)C(=O)N(C)[C@@H](C)C(=O)N[C@@H](CC(C)C)C(=O)N1C | 1.8 |
| CC[C@@H]1NC(=O)[C@@H](CC)NC(=O)[C@H](CC(C)C)NC(=O)[C@H](Cc2ccccc2)NC(=O)[C@H]2CCCN2C(=O)[C@H](CC(C)C)NC1=O | -0.443 |
| CC[C@@H]1C(=O)N(C)[C@@H](C)C(=O)N[C@@H](CC(C)C)C(=O)N2CCC[C@@H]2C(=O)N(C)[C@@H](C)C(=O)N[C@@H](CC(C)C)C(=O)N1C | -0.291 |
| CC(C)C[C@@H]1NC(=O)[C@H](C)N(C)C(=O)[C@H]2CCCN2C(=O)[C@H](CC(C)C)NC(=O)[C@H](C)N(C)C(=O)[C@@H](C)N(C)C1=O | -0.893 |
| CCC[C@@H]1NC(=O)[C@H](C)N(C)C(=O)[C@H](CC(C)C)NC(=O)Cn2cc(nn2)CN(C)C(=O)[C@H](CC(C)C)NC(=O)[C@H](C)N(C)C(=O)[C@H](CC)NC(=O)CN(CCC)C(=O)[C@H]2CCCN2C1=O | -1.65 |
| CC[C@@H]1C(=O)N(C)[C@@H](CC(C)C)C(=O)N[C@@H](CC(C)C)C(=O)N2CCC[C@@H]2C(=O)N(C)[C@@H](Cc2ccc(O)cc2)C(=O)N[C@@H](CC(C)C)C(=O)N1C | 1.46 |
| CCOC(=O)[C@@H]1CSCC(=O)N[C@H](CC)C(=O)N(CC(C)C)CC(=O)N[C@H](CC(C)C)C(=O)N(C)[C@H](C)C(=O)N(C)[C@@H](C)C(=O)N[C@H](CC(C)C)C(=O)N(C)[C@H](C)C(=O)N[C@@H](CC(C)C)C(=O)N1C | 1.45 |

Block 5
Host: human
Matrix: microsomes or S9
Tested at: 2 µM
Time: 0.5 h
| Compound | remaining compound [%] |
| --- | --- |
| COc1ccccc1NC(=O)Cn1c(=O)c2ccccc2n2nnc(-c3ccccc3)c12 | 83.3 |
| O=C(Cn1nc2c(cc1=O)CCCCC2)Nc1n[nH]c(C2CCCO2)n1 (centres unmarked) | 68.7 |
| Cc1nnc(C)n1/N=C/c1ccc(Br)cc1 | 93.5 |
| N=C(N)NC(=O)c1cc2c(-c3cccc(Cl)c3)cccc2s1 | > 100 |
| Cn1c(CN2CCN(C(=O)c3ccccc3)CC2)nc2cc(NC(=O)c3ccccc3[N+](=O)[O-])ccc21 | > 99 |
| COc1cc(=O)[nH]cc1C(=O)NC1CCCN(c2ccccc2)C1=O (centres unmarked) | 85.7 |
| Cc1nc2nc(CCc3ccccc3)nn2c(C)c1Cl | 36.4 |
| COc1ccc(Cl)cc1NC(=O)c1cc2c(OC)ccc(OC)c2n1C | 70.9 |
| Cc1cc(O)cc(NS(=O)(=O)c2cnn3c2OCC(C)(C)C3)c1 | > 100 |

A few entries again (block 1):
| target | remaining activity [%] |
| --- | --- |
| PAK6 (Homo sapiens, UniProt Q9NQU5) | 82.8 |
| CAMK1 (Homo sapiens, UniProt Q14012) | 90.4 |
| SGK2 (Homo sapiens, UniProt Q9HBY8) | 95.6 |
| CSNK1D (Homo sapiens, UniProt P48730) | 101 |
| SIK2 (Homo sapiens, UniProt Q9H0K1) | 93.1 |
| RPS6KB2 (Homo sapiens, UniProt Q9UBS0) | 104 |
| CLK2 (Homo sapiens, UniProt P49760) | 87.4 |
| EPHB3 (Homo sapiens, UniProt P54753) | 88.6 |
